# Experimental data pooled from the literature.
# Each numbered part is a random draw from the data of one study; scales do not carry over between parts.

# Study 1 — observed: enzyme activity; mode: inhibitor; tested at: 10 µM
# Target: Replicase polyprotein 1ab, 3C-like proteinase (rep, Middle East respiratory syndrome-related coronavirus, UniProt K9N7C7)
Compound,inhibition
Nc1nnc(Sc2ncc([N+](=O)[O-])s2)s1,45%
Oc1cc(CNC(=S)/C=C/c2cc(O)c(O)c(Br)c2)cc(O)c1O,20%
Oc1ccc2ccccc2c1SSc1c(O)ccc2ccccc12,6%
Nc1ccc(S(=O)(=O)Nc2ncccn2)cc1,22%

# Study 2 — observed: enzyme activity; mode: inhibitor; tested at: 20 µM
# Target: Replicase polyprotein 1ab, polymerase (rep, Severe acute respiratory syndrome coronavirus 2, UniProt P0DTD1)
Structure (SMILES),inhibition
CO[C@@]1(NC(=O)C2SC(=C(C(N)=O)C(=O)O)S2)C(=O)N2C(C(=O)O)=C(CSc3nnnn3C)CS[C@@H]21 (some centres unmarked),1.22%
O=C(/C=C/c1cccc(F)c1)NC1CC1,-0.75%
Cc1ccc(NC(=O)c2cccc(N(C)C)c2)cc1NC(=O)c1ccc(O)cc1,3.37%
NC(=O)CCCCC1CCSS1 (centres unmarked),-2.24%
CC1(C)S[C@@H]2[C@H](N)C(=O)N2[C@H]1C(=O)O,-0.71%
Cc1ccc(C(=O)Nc2ccc(CN3CCN(C)CC3)c(C(F)(F)F)c2)cc1C#Cc1cnc2[nH]ncc2c1,-6.66%
COc1cc(N)c(Cl)cc1C(=O)N[C@@H]1CCN(CCCOc2ccc(F)cc2)C[C@@H]1OC (racemic),-3.57%
COC(=O)c1cnn(-c2ccc(F)cc2F)c1/C=N/NC(=S)NC(C)(C)C,-0.46%
COc1cc(/C=C/C(=O)N2CCCCCCC2)cc(OC)c1OC,1.78%
COc1cc2c(c(OC)c1OC)-c1c(cc3c(c1OC)OCO3)C[C@H](C)[C@@](C)(O)C2,-1.03%
CCOP(=S)(OCC)Oc1nc(Cl)c(Cl)cc1Cl,1.83%
CO/N=C(\C(=O)N[C@@H]1C(=O)N2C(C(=O)O)=C(C[N+]3(C)CCCC3)CS[C@H]12)c1csc(N)n1,9.88%
COc1ccc(C2C(=O)c3ccccc3C2=O)cc1,4.62%
CCN(CC)Cc1nccn1-c1ccc([N+](=O)[O-])cc1C(=O)c1ccccc1Cl,2.42%
O=C(c1ccccc1)c1ccc2n1CCC2C(=O)O (centres unmarked),3.41%
C=C[C@@H]1C[C@]1(NC(=O)[C@@H]1C[C@@H](Oc2ncc(OC)c3ccc(Cl)cc23)CN1C(=O)[C@@H](NC(=O)OC(C)(C)C)C(C)(C)C)C(=O)NS(=O)(=O)C1CC1,-3.8%
Cn1ncc2c(N3CCOCC3)nc(-c3cccc(O)c3)nc21,9.41%
O=C1CCC[C@@H]2[C@H]3CCC[N+]4([O-])CCC[C@@H](CN12)[C@@H]34 (some centres unmarked),-4.39%
COc1c(-c2ccc3cc(NS(C)(=O)=O)ccc3c2)cc(-n2ccc(=O)[nH]c2=O)cc1C(C)(C)C,0.65%
CCCCC[C@H](O)/C=C/[C@H]1[C@H](O)CC(=O)[C@@H]1C/C=C\CCCC(=O)O,-7.18%
C[C@]12C=CC(=O)C=C1CC[C@H]1[C@@H]3C[C@@H](O)[C@](O)(C(=O)CO)[C@@]3(C)C[C@H](O)[C@@]12F,2.54%
Cc1nc(-c2cccnc2)sc1C(=O)Nc1ccccc1-c1cn2c(CN3CCOCC3)csc2n1,-1.58%
CCCCCCCCCCCCCCCC[N+](C)(C)C,-3.16%
CC(=O)c1ccc(NS(C)(=O)=O)c(Oc2ccc(F)cc2F)c1,-2.57%
O=C(O)c1ccc2cc(-c3ccc(O)c(C45CC6CC(CC(C6)C4)C5)c3)ccc2c1,3.2%

# Study 3 — technique: universal PBM; form: double-stranded DNA, one strand shown; sample: in vitro; tested at: not given; direction: higher = stronger binding
# Target: Sal-like protein 4, full length isoform B (SALL4, Homo sapiens, UniProt Q9UJQ4-2, residues 1-616)
# Notes: 8-mer, flanks averaged, mean of replicates
# Residues (chain): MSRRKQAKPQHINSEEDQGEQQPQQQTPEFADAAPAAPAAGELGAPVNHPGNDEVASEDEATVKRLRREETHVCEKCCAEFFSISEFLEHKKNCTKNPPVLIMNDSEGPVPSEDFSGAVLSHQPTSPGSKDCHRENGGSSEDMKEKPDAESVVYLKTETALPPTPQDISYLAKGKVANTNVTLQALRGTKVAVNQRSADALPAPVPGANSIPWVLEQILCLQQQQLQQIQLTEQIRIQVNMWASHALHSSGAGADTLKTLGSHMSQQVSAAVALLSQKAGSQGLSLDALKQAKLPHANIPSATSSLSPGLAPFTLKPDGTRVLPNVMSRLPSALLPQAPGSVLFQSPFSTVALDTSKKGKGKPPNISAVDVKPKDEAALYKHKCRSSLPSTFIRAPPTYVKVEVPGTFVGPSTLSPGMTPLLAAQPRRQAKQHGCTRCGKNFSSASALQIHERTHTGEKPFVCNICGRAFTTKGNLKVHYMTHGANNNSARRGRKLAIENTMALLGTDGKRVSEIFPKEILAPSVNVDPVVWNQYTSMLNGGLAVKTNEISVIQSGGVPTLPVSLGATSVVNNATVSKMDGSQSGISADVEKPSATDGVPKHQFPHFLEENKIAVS
Sequence,E-score
CTCTTTAC,0.0299
AACCCAGT,-0.18
GTTGCCCA,-0.0865
ATGGCAAT,0.127
CGGACTTA,-0.0881
ACTCTAGA,0.0753
ATAATACA,0.391
CCACGTCC,-0.237

# Study 4 — technique: protein binding microarray; form: double-stranded DNA, one strand shown; sample: in vitro; tested at: not given; reference: not given; direction: higher = stronger binding
# Target: Histone acetyltransferase KAT6A, winged helix 2, GST fusion (KAT6A, Homo sapiens, UniProt Q92794, residues 85-181)
# Notes: 8-mer, flanks averaged, mean of 2 arrays, mostly near background
# Target sequence (chain): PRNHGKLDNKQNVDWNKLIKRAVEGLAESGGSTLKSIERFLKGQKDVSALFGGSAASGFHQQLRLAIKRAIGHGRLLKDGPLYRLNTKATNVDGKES
Sequence,E-score
AGTACTGC,-0.167
CAACGATC,-0.0441
AGATGCTA,0.033
GCGGGCAC,0.166
CCCACACG,0.138
TACCGCAA,0.175
CGTAGACG,-0.0383
GAGCGGGC,0.116

# Study 5 — technique: protein-binding microarray; form: double-stranded DNA, one strand shown; sample: in vitro; tested at: 250 nM; notes: 60-bp whole probe; added: salmon DNA 0.4 mg/ml; reference: random background probes; direction: higher = stronger binding; shared flanks, not repeated: GCCTAGCAC … GTCTTGATTCGCTTGACGCTGCTG
# Target: Interferon regulatory factor 5, full length, phosphomimetic (IRF5, Homo sapiens, UniProt Q13568-2, residues 1-514, K96S/S451D/S453D/S456D/S462D)
Sequence,log fluorescence [z-score]
TCAAACCCCATTCTCAGACTGTGCTAG,-0.183
GACGGATTGGGTATCGGGACGTGCTAG,0.721
GACGATTTCGGAACTGGAGACGTGCTA,1.91
TTAGATTTTGGGACTGGATTAGTGCTA,0.159
GACGATCTCAGTATCGATACGTGCTAG,6.8
GACCATATCGGGTATCGAGACGTGCTA,1.57
TTAGGTTTCCTTTTCCATTAGTGCTAG,1.48
TTAGATTTCCGACTGGATTAGTGCTAG,0.0755

# Study 6 — cell line: HEK-293T; observed: pseudovirus infection; technique: FDA-approved drug library screen; organism: VSV pseudotyped with SARS-CoV-2 spike; tested at: 10 µM; time: 16 h; reference: vehicle-treated
SMILES,GFP-positive cells [%]
CC1=CC(=O)c2ccccc2C1=O,97.2
O=c1[nH]c(=O)n([C@H]2C[C@H](O)[C@@H](CO)O2)cc1F,88.3
CCc1ccc(CCOc2ccc(CC3SC(=O)NC3=O)cc2)nc1 (centres unmarked),91.3

# Excerpt of the above (study 5):
Sequence,log fluorescence [z-score]
TTAGATTTCCGACTGGATTAGTGCTAG,0.0755
GACGGATTGGGTATCGGGACGTGCTAG,0.721
TTAGATTTTGGGACTGGATTAGTGCTA,0.159
GACCATATCGGGTATCGAGACGTGCTA,1.57
